Measured values pooled from the literature.
Each numbered part is a random draw from the data of one study; scales do not carry over between parts. pIC50: −log10 of the molar value.
Chain of UniProt O14936 (whole entry, looked up): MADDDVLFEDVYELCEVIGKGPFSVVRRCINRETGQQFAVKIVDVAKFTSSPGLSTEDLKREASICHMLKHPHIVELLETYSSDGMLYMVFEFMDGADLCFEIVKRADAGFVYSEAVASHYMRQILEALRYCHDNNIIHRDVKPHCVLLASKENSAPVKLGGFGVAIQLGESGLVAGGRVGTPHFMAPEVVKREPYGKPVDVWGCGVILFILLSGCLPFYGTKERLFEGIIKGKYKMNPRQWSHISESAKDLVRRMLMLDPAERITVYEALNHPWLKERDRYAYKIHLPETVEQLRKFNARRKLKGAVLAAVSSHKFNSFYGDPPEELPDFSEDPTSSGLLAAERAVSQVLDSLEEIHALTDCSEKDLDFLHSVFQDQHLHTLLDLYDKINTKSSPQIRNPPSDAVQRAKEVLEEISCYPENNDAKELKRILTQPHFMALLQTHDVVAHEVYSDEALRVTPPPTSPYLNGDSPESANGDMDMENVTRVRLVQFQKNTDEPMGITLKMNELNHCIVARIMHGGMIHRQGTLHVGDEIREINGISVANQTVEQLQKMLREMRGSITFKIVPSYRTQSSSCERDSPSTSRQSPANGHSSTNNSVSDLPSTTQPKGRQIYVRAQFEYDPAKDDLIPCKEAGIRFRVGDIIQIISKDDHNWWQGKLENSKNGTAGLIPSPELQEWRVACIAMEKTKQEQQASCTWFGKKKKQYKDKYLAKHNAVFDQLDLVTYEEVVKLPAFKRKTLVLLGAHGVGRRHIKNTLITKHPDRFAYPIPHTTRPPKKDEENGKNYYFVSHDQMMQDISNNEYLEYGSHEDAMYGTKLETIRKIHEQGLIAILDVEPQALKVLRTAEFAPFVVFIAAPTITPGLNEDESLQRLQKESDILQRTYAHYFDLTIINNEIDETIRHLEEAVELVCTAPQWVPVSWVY
Chain of UniProt Q00537 (whole entry, looked up): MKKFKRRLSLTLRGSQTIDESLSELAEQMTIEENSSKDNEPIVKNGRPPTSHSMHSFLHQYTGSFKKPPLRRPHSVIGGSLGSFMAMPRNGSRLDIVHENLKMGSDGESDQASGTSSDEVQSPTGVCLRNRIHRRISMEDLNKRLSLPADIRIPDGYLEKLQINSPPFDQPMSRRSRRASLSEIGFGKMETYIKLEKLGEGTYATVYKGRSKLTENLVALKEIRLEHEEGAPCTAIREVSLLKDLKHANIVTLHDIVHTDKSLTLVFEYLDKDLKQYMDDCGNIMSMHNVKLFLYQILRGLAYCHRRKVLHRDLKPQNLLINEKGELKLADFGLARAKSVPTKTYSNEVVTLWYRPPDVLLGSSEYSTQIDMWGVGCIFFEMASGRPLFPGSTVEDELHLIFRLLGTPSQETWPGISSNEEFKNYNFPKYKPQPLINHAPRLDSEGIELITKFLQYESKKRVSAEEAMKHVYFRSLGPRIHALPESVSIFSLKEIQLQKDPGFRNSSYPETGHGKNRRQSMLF
Chain of UniProt Q9NYL2 (whole entry, looked up): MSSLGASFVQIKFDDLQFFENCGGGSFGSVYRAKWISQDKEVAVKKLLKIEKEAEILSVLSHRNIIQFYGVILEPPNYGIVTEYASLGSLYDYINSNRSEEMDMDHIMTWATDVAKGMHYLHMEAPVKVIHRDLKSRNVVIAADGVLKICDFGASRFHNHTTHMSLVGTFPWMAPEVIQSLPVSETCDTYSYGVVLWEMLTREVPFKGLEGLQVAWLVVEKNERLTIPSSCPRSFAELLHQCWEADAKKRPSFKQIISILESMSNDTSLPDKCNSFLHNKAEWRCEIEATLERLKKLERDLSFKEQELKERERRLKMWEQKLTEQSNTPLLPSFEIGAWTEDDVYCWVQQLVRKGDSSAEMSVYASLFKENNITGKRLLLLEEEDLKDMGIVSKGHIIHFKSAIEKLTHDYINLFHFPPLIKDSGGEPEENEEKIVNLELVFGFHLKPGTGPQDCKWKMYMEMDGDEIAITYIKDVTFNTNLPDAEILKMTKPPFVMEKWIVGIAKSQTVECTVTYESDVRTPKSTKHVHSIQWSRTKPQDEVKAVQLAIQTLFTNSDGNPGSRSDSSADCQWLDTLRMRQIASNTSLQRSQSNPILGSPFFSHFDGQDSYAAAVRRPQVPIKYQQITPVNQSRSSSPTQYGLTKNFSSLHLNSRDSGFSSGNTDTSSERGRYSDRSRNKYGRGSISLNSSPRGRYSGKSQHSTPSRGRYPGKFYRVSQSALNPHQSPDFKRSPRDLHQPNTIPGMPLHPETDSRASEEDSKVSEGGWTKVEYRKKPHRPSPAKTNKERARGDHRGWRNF
Chain of UniProt P49761 (whole entry, looked up): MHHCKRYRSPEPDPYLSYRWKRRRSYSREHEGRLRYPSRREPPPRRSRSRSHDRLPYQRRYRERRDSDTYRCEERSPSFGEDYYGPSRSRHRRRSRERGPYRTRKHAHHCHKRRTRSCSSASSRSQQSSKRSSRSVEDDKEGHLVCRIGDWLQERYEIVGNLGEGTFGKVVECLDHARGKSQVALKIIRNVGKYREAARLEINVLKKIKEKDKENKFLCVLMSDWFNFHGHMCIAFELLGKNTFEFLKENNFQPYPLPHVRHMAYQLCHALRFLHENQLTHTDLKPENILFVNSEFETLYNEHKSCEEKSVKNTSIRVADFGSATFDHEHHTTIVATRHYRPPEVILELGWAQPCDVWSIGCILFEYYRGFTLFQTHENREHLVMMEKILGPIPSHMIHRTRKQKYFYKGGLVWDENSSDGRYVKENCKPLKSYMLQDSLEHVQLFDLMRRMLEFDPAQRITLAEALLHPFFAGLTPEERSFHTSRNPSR
Chain of UniProt Q86YV6 (whole entry, looked up): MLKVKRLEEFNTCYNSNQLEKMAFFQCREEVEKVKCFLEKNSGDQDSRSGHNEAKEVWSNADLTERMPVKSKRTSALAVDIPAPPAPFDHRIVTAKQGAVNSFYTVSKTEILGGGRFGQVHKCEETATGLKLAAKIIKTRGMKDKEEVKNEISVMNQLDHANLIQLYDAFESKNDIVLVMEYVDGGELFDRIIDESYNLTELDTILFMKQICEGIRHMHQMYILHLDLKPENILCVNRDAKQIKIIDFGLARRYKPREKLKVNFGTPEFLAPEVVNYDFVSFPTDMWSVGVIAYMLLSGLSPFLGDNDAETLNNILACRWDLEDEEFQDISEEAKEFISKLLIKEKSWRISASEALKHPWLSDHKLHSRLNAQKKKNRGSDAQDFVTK
Chain of UniProt Q8N752 (whole entry, looked up): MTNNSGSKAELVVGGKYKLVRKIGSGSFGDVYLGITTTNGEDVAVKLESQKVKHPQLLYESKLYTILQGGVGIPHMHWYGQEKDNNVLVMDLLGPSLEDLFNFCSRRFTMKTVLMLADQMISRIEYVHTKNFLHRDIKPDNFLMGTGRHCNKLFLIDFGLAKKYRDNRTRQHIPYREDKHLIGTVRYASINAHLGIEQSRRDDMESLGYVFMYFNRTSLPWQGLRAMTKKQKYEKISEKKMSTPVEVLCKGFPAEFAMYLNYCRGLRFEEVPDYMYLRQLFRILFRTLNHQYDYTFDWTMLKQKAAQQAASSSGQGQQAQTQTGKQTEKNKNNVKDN

Study 1
Target: Calcium/calmodulin-dependent protein kinase type II subunit alpha (CAMK2A, Homo sapiens, UniProt Q9UQM7)
Chain of UniProt Q9UQM7 (whole entry, looked up): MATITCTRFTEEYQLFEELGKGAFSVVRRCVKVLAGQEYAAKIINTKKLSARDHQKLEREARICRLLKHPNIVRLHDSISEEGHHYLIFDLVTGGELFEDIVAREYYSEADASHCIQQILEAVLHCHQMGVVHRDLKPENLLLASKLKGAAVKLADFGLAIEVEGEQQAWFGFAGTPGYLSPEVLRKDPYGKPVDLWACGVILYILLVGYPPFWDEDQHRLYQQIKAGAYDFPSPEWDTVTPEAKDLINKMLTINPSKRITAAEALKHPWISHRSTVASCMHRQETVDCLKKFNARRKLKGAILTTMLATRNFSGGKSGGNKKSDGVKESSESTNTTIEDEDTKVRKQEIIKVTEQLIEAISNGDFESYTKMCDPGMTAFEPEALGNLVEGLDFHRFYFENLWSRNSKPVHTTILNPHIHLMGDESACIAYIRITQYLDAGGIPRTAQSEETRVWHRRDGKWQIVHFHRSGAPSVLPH
Read-out: enzyme activity
Mode: inhibitor
Tested at: 10 µM
For O=C(O)CNC(=O)[C@@H]1CCCN1, the inhibition was 2%.
The inhibition of O=C1OC(c2ccc(O)cc2)(c2ccc(O)cc2)c2ccccc21 is reported as -5%.
For O=C(NCCCN1CCOCC1)c1ccc(Cl)cc1, the inhibition was -6%.
C=C1C(=O)[C@@]23[C@H](O)C[C@@H]4C(C)(C)CC[C@H](O)[C@@]4(CO)[C@@H]2CC[C@@H]1[C@H]3O gave an inhibition of 22%.
CC1=C[C@@]2(O)O[C@@]3(CC2=C(C)C)[C@@H](C)CC[C@@H]13 has an inhibition of 30%.
The inhibition of COc1c(C)c2c(c(O)c1C/C=C(\C)CCC(=O)O)C(=O)OC2 is reported as 21%.
With Nc1cccc2c1C(=O)N(C1CCC(=O)NC1=O)C2=O (stereo not shown) the inhibition was -3%.
The inhibition of OCC1=C[C@@H](O)[C@@H]2C=CO[C@@H](O[C@@H]3O[C@H](CO)[C@@H](O)[C@H](O)[C@H]3O)[C@H]12 is reported as 28%.
With CC1(C)S[C@@H]2[C@H](NC(=O)C(C(=O)Oc3ccc4c(c3)CCC4)c3ccccc3)C(=O)N2[C@H]1C(=O)O (stereo partly shown) the inhibition was -6%.

Study 2
SMILES: Cc1nc(N2CC[C@@H](O)C2)ncc1-c1cc(C(F)(F)F)cc2[nH]ncc12
Tested at: 1 µM
MET (Homo sapiens, UniProt P08581, M1250T); cell-free assay, competition with immobilised ligand — remaining binding: 92%.
For CLK3 (Homo sapiens, UniProt P49761); binding, competition with immobilised ligand: remaining binding read 76%.
MARK2 (Homo sapiens, UniProt Q7KZI7); binding, competition with immobilised ligand — remaining binding: 100%.
MYLK4 (Homo sapiens, UniProt Q86YV6); cell-free assay, competition with immobilised ligand — remaining binding: 100%.
CASK (Homo sapiens, UniProt O14936); binding, competition with immobilised ligand — remaining binding: 95%.
It gave 96% for remaining binding (CHEK2 (Homo sapiens, UniProt O96017); binding, competition with immobilised ligand).
It gave 100% for remaining binding (PIP4K2C (Homo sapiens, UniProt Q8TBX8); binding, competition with immobilised ligand).
It gave 93% for remaining binding (EGFR (Homo sapiens, UniProt P00533, T790M); cell-free assay, competition with immobilised ligand).
MET (Homo sapiens, UniProt P08581, Y1235D); cell-free assay, competition with immobilised ligand — remaining binding: 81%.
It gave 90% for remaining binding (FGFR1 (Homo sapiens, UniProt P11362); cell-free assay, competition with immobilised ligand).
HCK (Homo sapiens, UniProt P08631); cell-free assay, competition with immobilised ligand — remaining binding: 100%.
EGFR (Homo sapiens, UniProt P00533, del747-750/T751S); cell-free assay, competition with immobilised ligand — remaining binding: 100%.
It gave 86% for remaining binding (ERN1 (Homo sapiens, UniProt O75460); cell-free assay, competition with immobilised ligand).
EPHA7 (Homo sapiens, UniProt Q15375); cell-free assay, competition with immobilised ligand — remaining binding: 63%.
It gave 74% for remaining binding (MAP2K2 (Homo sapiens, UniProt P36507); binding, competition with immobilised ligand).
It gave 83% for remaining binding (NUAK1 (Homo sapiens, UniProt O60285); binding, competition with immobilised ligand).
It gave 51% for remaining binding (Ribosomal protein S6 kinase alpha-6, N-terminal kinase domain (RPS6KA6, Homo sapiens, UniProt Q9UK32); binding, competition with immobilised ligand).
For CHUK (Homo sapiens, UniProt O15111); cell-free assay, competition with immobilised ligand: remaining binding read 76%.
CSNK1A1L (Homo sapiens, UniProt Q8N752); cell-free assay, competition with immobilised ligand — remaining binding: 93%.
For Non-receptor tyrosine-protein kinase TYK2, JH2 (TYK2, Homo sapiens, UniProt P29597); binding, competition with immobilised ligand: remaining binding read 70%.
It gave 80% for remaining binding (MARK4 (Homo sapiens, UniProt Q96L34); binding, competition with immobilised ligand).
For DYRK1B (Homo sapiens, UniProt Q9Y463); cell-free assay, competition with immobilised ligand: remaining binding read 96%.
The remaining binding was 100% (CDK19 (Homo sapiens, UniProt Q9BWU1); competition binding).
It gave 82% for remaining binding (PIK3CA (Homo sapiens, UniProt P42336, Q546K); cell-free assay, competition with immobilised ligand).
For MAP3K13 (Homo sapiens, UniProt O43283); binding, competition with immobilised ligand: remaining binding read 56%.

Study 3
SMILES: O=C(Nc1cnn(-c2csc(C(=O)NC3COC3)c2)c1)Nc1ccccc1Cl
Read-out: enzyme activity
Tested at: 5 µM
Relative to: untreated control
PASK (Homo sapiens, UniProt Q96RG2) — remaining activity: 94.2%.
For TESK1 (Homo sapiens, UniProt Q15569): remaining activity read 101%.
LCK (Homo sapiens, UniProt P06239) — remaining activity: 91.3%.
PKMYT1 (Homo sapiens, UniProt Q99640) — remaining activity: 86.8%.
It gave 97.8% for remaining activity (MAP3K7 (Homo sapiens, UniProt O43318)).
MAP3K20 (Homo sapiens, UniProt Q9NYL2) — remaining activity: 98.5%.
For EGFR (Homo sapiens, UniProt P00533): remaining activity read 98.7%.
NEK1 (Homo sapiens, UniProt Q96PY6) — remaining activity: 115%.
For MAPKAPK5 (Homo sapiens, UniProt Q8IW41): remaining activity read 91%.
It gave 106% for remaining activity (Cyclin-dependent kinase 17, with cyclin Y (CDK17, Homo sapiens, UniProt Q00537)).

Study 4
SMILES: C=CCc1ccc(O)c(-c2ccc(O)c(CC=C)c2)c1
Read-out: chloride current
Technique: whole-cell voltage clamp
ANO1 del476-501/F623A: Anoctamin-1 (ANO1, Homo sapiens, UniProt Q5XXA6, del476-501/F623A)
Chain of UniProt Q5XXA6 (whole entry, unmodified, looked up): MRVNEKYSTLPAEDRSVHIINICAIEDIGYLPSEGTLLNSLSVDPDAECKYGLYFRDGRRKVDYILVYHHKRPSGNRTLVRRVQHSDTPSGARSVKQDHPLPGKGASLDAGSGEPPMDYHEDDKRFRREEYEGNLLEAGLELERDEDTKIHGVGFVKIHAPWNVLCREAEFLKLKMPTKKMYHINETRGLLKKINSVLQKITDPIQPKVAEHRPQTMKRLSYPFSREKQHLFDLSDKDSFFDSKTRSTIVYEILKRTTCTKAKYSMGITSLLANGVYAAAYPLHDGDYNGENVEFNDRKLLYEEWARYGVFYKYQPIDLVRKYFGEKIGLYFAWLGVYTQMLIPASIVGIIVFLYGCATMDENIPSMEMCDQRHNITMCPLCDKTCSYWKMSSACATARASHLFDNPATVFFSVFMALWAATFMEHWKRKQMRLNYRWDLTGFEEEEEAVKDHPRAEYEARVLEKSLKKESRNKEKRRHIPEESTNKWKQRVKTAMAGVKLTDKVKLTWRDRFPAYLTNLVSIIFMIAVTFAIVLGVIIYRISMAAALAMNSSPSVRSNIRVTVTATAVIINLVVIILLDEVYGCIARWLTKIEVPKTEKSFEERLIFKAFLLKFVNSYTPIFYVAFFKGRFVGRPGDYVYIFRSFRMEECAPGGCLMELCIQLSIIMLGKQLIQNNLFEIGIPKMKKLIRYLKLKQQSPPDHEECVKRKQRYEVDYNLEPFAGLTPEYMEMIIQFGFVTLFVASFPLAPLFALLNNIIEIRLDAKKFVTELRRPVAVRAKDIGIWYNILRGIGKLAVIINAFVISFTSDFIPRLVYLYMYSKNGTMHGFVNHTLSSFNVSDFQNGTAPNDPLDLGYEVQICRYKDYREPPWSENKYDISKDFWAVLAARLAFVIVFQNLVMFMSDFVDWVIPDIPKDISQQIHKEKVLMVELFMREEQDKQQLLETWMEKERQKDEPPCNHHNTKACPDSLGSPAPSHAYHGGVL
For Anoctamin-1 (ANO1, Homo sapiens, UniProt Q5XXA6, del476-501/F646A); membrane voltage -80 mV: pIC50 read 5.23.
For Anoctamin-1 (ANO1, Homo sapiens, UniProt Q5XXA6, D383A/del476-501); membrane voltage -40 mV: pIC50 read 5.02.
It gave 4.57 for pIC50 (Anoctamin-1 (ANO1, Homo sapiens, UniProt Q5XXA6, del476-501/F807A); membrane voltage -20 mV).
Anoctamin-1 (ANO1, Homo sapiens, UniProt Q5XXA6, del476-501/R631I); inhibitor; R605I mutant at -40 mV — pIC50: 4.64.
It gave 4.53 for pIC50 (ANO1 del476-501/F623A; membrane voltage -100 mV).
For Anoctamin-1 (ANO1, Homo sapiens, UniProt Q5XXA6, del476-501/E650A); membrane voltage -20 mV: pIC50 read 5.44.
The pIC50 was 5.06 (ANO1 del476-501/F623A; inhibitor; mutant F597A at 100 mV, added: 300 nM Ca2+).
It gave 5.20 for pIC50 (Anoctamin-1 (ANO1, Homo sapiens, UniProt Q5XXA6, del476-501/L548A); membrane voltage -20 mV).

Repeated from above (study 2):
For Non-receptor tyrosine-protein kinase TYK2, JH2 (TYK2, Homo sapiens, UniProt P29597); binding, competition with immobilised ligand: remaining binding read 70%.
EPHA7 (Homo sapiens, UniProt Q15375); cell-free assay, competition with immobilised ligand — remaining binding: 63%.
It gave 82% for remaining binding (PIK3CA (Homo sapiens, UniProt P42336, Q546K); cell-free assay, competition with immobilised ligand).
MET (Homo sapiens, UniProt P08581, M1250T); cell-free assay, competition with immobilised ligand — remaining binding: 92%.
